Experimental data from different studies.
Every numbered part comes from another study and shows a few of its results, in no order.

Study 1
Target: Prothrombin, mature alpha-thrombin (F2, Homo sapiens, UniProt P00734)
Method: aptamer microarray, sandwich
Form: DNA with 2'F-ANA
Sample: in vitro
Tested at: 200 nM
Notes: whole 15-mer aptamer, many near background
With: Cy3 exosite-II aptamer, 400 nM
Direction: higher = stronger binding
Sequence: GGTTGGTGTGGTTGG
| Modification | mean fluorescence intensity [a.u.] |
| --- | --- |
| 2'F-ANA at 1 3 4 6 8 11 12 | 338 |
| 2'F-ANA at 1 2 3 7 10 13 15 | 121 |
| 2'F-ANA at 1 2 3 4 6 7 9 11 13 15 | 84.2 |
| 2'F-ANA at 2 4 5 7 9 10 11 12 | 49.1 |
| 2'F-ANA at 1 3 5 8 11 15 | 57.5 |
| 2'F-ANA at 1 2 3 6 7 9 10 14 15 | 53.2 |
| 2'F-ANA at 1 3 5 7 8 13 | 75.1 |
| 2'F-ANA at 3 5 6 7 11 | 88.7 |
| 2'F-ANA at 2 3 9 14 | 405 |
| 2'F-ANA at 1 2 4 7 9 12 14 15 | 56.6 |
| 2'F-ANA at 2 3 4 5 6 9 10 13 | 47.3 |
| 2'F-ANA at 1 3 4 6 7 10 14 15 | 48.1 |
| 2'F-ANA at 1 3 4 6 7 9 10 11 13 | 88.3 |
| 2'F-ANA at 3 5 8 9 11 15 | 107 |
| 2'F-ANA at 2 8 9 13 14 | 130 |
| 2'F-ANA at 1 2 5 6 14 15 | 47 |
| 2'F-ANA at 2 3 5 6 9 11 12 | 168 |
| 2'F-ANA at 1 3 6 9 10 12 | 451 |
| 2'F-ANA at 1 3 4 5 7 8 9 14 15 | 48.5 |

Study 2
Target: RNA binding protein fox-1 homolog 2, RRM domain, GST-SBP tag (RBFOX2, Homo sapiens, UniProt O43251-10, residues 100-194)
Method: RNA Bind-n-Seq
Form: RNA
Sample: in vitro
Tested at: 365 nM
Notes: natural RNA segment, single round, ends assumed
Baseline: no-protein control
Direction: higher = stronger binding
Shared flanks, not repeated: GGGAGUUCUACAGUCCGACGAUC … UGGAAUUCUCGGGUGCCAA
Target sequence (chain): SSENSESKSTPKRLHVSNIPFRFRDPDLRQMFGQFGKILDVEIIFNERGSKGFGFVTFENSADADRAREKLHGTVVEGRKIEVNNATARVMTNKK
| Sequence | RBNS enrichment (R) |
| --- | --- |
| GAGCCCCUGCUCCCAGAUCCCUCUGAACCGCCGAGCAACAGCAAAACUAUGUGACAACACUUCUCCGCAUAAAGGUUAUGGUGCCCUAGGCAGUGACAUAUGGCCUCAGG | 0.455 |
| GUCCUGCCCGACUUCCCAGUUAAAUGCUGCUUGUGCCCAGUGCUGCUUUCCCAAGCUCACCCCACCUCCAUGACUAGAAGCUUCUGCAAAUCUGCUUGGUAAAUGUCUCC | 0.753 |
| UCGGAGGCCCAGCAUCCUGCAACCGACCCCUUUUUUCUACUGGAAGAGAAAUUUUAUCAUCUUUUGAAAGGAAGUCAUGACUGAAGCAAUAAACCUUUUCACUGAUUCAA | 0.644 |
| CUGCCUGCCUGCGAGGCACCUGCCUUGCAGCAGGCUCUCAGCCCUUCCCUCUGAGCUGCUCAGAGAGGGUAGCUAGCCCAAUGAUGUGGCCCGUGGACAGGAUAAGCAGA | 0.224 |
| GAGAGGGACAUGAAUCGUGCAUGUUGUUGUUUUUGACAGUGUGGCUGUCAGUUUUGAAUUCCUCCAUCUGAACUGCACUGAAGAACUAGACUAAAGCACCGGGCGGUCCA | 20.2 |
| UGCUCCGGUUUUUUCAUACGACUUAGUAUGGGGCAAAAAAGCAAUGUGAAGAAUCAACUCUAGGGUUACCUGUGAAGCCACGCGGUGGUGUUCGAAGCUGUCUGGUAAUG | 0.31 |
| UAUUUAAAAAAAAGAAUCACCAAAUCUAUUUGAAAACAAGUCGAUUUGUAUUAUGCUGGAAUUUUUUGGGCUUUCAGAUUUCUCUUUUUAACCACAUUUCUGAAUGUAUA | 0.67 |
| UUUAAUUUUCAAGAUAAUUUAACUCUUGUCUAAUAUUCUUGUGUAAGGGAUUAAUUUUCAGACCCCUUUAAAAGUGAGUGCCAUAAAGAGUCAAUAUAUAGUGUUGAAGU | 0.427 |
| AAUGUUCCAAGACACUUGAGAGAAAAGACCUAGGAAAGAGAAGGUUCCUGGUGAGCCUGUGGUCUAGUCCCCCUAGUCCAGCUGUUGAAGACCAACUGCUUCCUGAUGAU | 0.339 |
| CAACCACUGUUGGCCCAGCCUGGCUUGUGAGGAAACCAGCCCUGUCCCUCAGUAUUGAACUUGGCUGCUUGUGGGAUCCAGUCCUGGAGGACAGGCAUCAAGUUCUUAGC | 0.271 |
| CCCUGGAGCACUGGGAACAACUGGUCUCCUGUGAUGGCUGGGACUCCUCGCGGGAGGGGACUGCGCUGCUAUAGCUCUUGCUGCCUCUCUUGAAUAGCUCUAACUCCAAA | 0.281 |
| CUGUUGCUCUAGGAGGCUCCUGCUGGCUUGGUAGAAGACAGAAUUCGAUCUGCCUGUCCCUUUUUCCCCUGGGGUUUGACACACAGGCUCCUCUCAGCAUGAGGUGGAGC | 1.85 |

Study 3
Target: Sal-like protein 4, full length isoform B (SALL4, Homo sapiens, UniProt Q9UJQ4-2, residues 1-616)
Method: universal PBM
Form: double-stranded DNA, one strand shown
Sample: in vitro
Tested at: not given
Notes: 8-mer, flanks averaged, mean of replicates
Direction: higher = stronger binding
| Sequence | E-score |
| --- | --- |
| ATAGCCGC | -0.222 |
| CCAGAGTC | -0.143 |
| AGCGGAGC | -0.285 |
| AAGAGTCC | -0.158 |
| TAGAAGAA | 0.184 |
| GCTTCGTA | -0.00105 |
| ACCGCCCA | -0.301 |
| ACCTTACA | 0.0899 |
| AACAGGGT | -0.0892 |
| CAACTTAC | -0.0681 |
| CCCATAGC | -0.0689 |
| CACAAGAC | 0.0329 |
| GGAAGCAC | -0.0929 |
| GCCTTTAC | -0.00425 |
| ACAAGACT | 0.0962 |
| CCAGTGAA | 0.0118 |
| GACGCCTC | -0.184 |
| GAAAGAAA | 0.16 |
| CCTACGGC | -0.284 |
| AGGAGGAC | -0.212 |
| CCATAAGG | 0.0559 |

Study 4
Target: RING finger protein unkempt homolog, zinc fingers 1-6, GST-SBP tag (UNK, Homo sapiens, UniProt Q9C0B0, residues 30-357)
UniProt Q9C0B0, sequence (30-357, looked up): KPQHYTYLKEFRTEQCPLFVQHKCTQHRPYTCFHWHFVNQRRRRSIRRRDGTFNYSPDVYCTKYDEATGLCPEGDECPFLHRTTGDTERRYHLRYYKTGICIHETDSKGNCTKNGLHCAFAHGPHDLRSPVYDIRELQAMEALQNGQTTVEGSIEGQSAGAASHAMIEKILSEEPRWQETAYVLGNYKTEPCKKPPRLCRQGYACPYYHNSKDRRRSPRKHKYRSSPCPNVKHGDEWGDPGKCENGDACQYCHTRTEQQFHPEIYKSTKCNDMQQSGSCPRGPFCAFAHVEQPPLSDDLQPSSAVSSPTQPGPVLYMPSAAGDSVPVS
Method: RNA Bind-n-Seq
Form: RNA
Sample: in vitro
Tested at: not given
Notes: RNA with constant flanks, human-mouse chimeric sites, ends assumed
Baseline: input RNA pool
Direction: higher = stronger binding
Shared flanks, not repeated: GGGAGUUCUACAGUCCGACGAUC … CAACAGAGGAUUGAGCAUCA
| Sequence | bound/input enrichment [ratio] |
| --- | --- |
| GAUAGGAAAAGCUUGUUGGAGACCCGCUUGCAUGUCACUGGUAGAGACCUGAGGUGUCAAAUAGCUGAAACUUUCGGAUUUCAAGAAAAUUAUAUCAAGAUCGUAAUAAAUAAGAAACAG | 0.805 |
| UAAGUCCAUUUGUAAGCCUUCGCUCAUAAAGUUUUAAAUUCUGGACCAAUAGUGUUUGUUUCCUGAUUUUUGUAUUCAAUACUUUGCCUAGUAUGUAACUCACUCUUACUGAUAAUAAAA | 0.797 |
| AAAGAUCUACUGAGGCAAGGCAGCAAAUUUAGGAGAGACAUUUCAACAAUAUUGAUAGAGUUAGGAUUCCAAAUUAAAAAGAAAACUAAGACAUUAUACAUCAACAAAGCCAAUGUGUGG | 6.37 |
| AACAGAUUGUCUUUAAGCAUUCCAAGCGAGAAUGCUGGGGUGAUCAUUGUUGCCCAUGUGCCUUCUGACUGAGCUUUAAUGCUGUUCAUCCUUGAUGCUUUCCUUCAUUGCAUAUUUGUU | 0.165 |
| UGUAGUUUCGCGGUUCAGGCUUUGUGUGUAGUUCACUCUAUGUAUUAAAUUAUUAUUCUGCUUAGCUUAUAAUAAGGAUAAUUGCAUUUAAAGAGGUUACUGAAUGUUACUCUGAAACUU | 0.244 |
| UUACCCGAGAACGAGGAUGAGCUGGAGAGCACCAACAGGCGCUACACCAAGAGAGACUGCAGCACUUUUCUCAGAACUAGUGAGACGGGCAUCGUGGACCAGGUCAUGGUCACUCUCAAC | 0.151 |
| AAAGAGUGGAUAGAGUGUGCACACGGGAUCGGUGGGACCCGGGCGAAGAAAGAGUGCAAGAUAGAGUAUGAUGAUUUCGAAGAGUGCUUGCUUCGGUACAAAACGAUGAGGCGAAUGCAU | 0.719 |
| CCAAGUGAUUCAUCCCAAGGACAGGCCACCCCAUUUGAUGCCUGGACUGAUGACAGUAUGGAAGGGCCUAGUCAAAAUGUUGAAGCUGAGUCAAUUCAGGAUGCCAUGCAUAUGGCAGAG | 0.162 |
| AGAAUCUUGGGACUGUUUUACUUAAUUGGUCAUUGAUAUCUCAACAAACAUGGAGAUAAGAUUAGAAAUCUUGACAUCAACAGGUAUUAAGCAGAAAAAACCAUGGCCCAGAGUAUCCUG | 0.111 |
| CUGGCACUCUAUCAGAUAUAUUAAUUUUUUAAUGUAGAUGUAAUUUUAAAAAUGAAUGGCUACUUUACACGUUUAACUAGGCUCUUACUAUAUAUGUGUGUGUAUAUAUAUAUAUAUAUA | 8.67 |
| GCAUAUGGUUAUCGAGGAAAGGACUGUAGAGCGAAUGUAUACCUGCUUCCCACAGGGGAGAUAGUUUAUUUCAUUGCCUCAGUGGUAGUCCUGUUUAAUUAUGAGGAGAGGACUCAGCGA | 0.856 |

Study 5
Target: Runt-related transcription factor 1, full length (RUNX1, Homo sapiens, UniProt Q01196-8, residues 1-480)
Method: protein-binding microarray
Form: hairpin DNA
Sample: in vitro
Tested at: not given
Notes: whole hairpin DNA, median over replicate spots
Baseline: not given
Direction: higher = stronger binding
| Sequence | median fluorescence |
| --- | --- |
| GAGGCCTGTCGCGGTCGGCCTCCTGGCCGACCGCGACAGGCCTCACACTC (5mC at 16) | 2270 a.u. |
| GAGGCCTGTTGCAGTTGGCCTCCTGGCCAACTGCAACAGGCCTCACACTC | 1640 a.u. |
| GAGGCCCAACCGCGACAGCCTCCTGGCTGTCGCGGTTGGGCCTCACACTC | 2860 a.u. |
| GAGGCCTGTGGTGGTTGGCCTCCTGGCCAACCACCACAGGCCTCACACTC | 2310 a.u. |
| GAGGCCTGTTCGGGTTGGCCTCCTGGCCAACCCGAACAGGCCTCACACTC (5mC at 11 33) | 1720 a.u. |
| GAGGCCTGTCGCCGTTGGCCTCCTGGCCAACGGCGACAGGCCTCACACTC | 1690 a.u. |
| GAGGCCTGTCGCGGTCGGCCTCCTGGCCGACCGCGACAGGCCTCACACTC (5mC at 16 28) | 2320 a.u. |
| GAGGCCGGTTGCGGTTGGCCTCCTGGCCAACCGCAACCGGCCTCACACTC (5mC at 38) | 7480 a.u. |
| GAGGCCTGTCGCGGTTCGCCTCCTGGCGAACCGCGACAGGCCTCACACTC (5mC at 17) | 2240 a.u. |
| GAGGCCGAACCGCAACAGCCTCCTGGCTGTTGCGGTTCGGCCTCACACTC | 4460 a.u. |
| CTCAGTTGTGTGGGCTGGACTCCTGTCCAGCCCACACAACTGAGACACTC | 1950 a.u. |
| GAGGCCTGTCGCGGATGGCCTCCTGGCCATCCGCGACAGGCCTCACACTC | 1790 a.u. |
| GAGGCCTGTCGCGGTTGGCCTCCTGGCCAACCGCGACAGGCCTCACACTC (5mC at 20) | 2910 a.u. |
| GAGGCCTGGCGCGGTTGGCCTCCTGGCCAACCGCGCCAGGCCTCACACTC (5mC at 36) | 2430 a.u. |
| GAGGCCTGTCGCGGTTGGCCTCCTGGCCAACCGCGACAGGCCTCACACTC (5mC at 19) | 2700 a.u. |
| GAGGCCTCGCGCGGTTGGCCTCCTGGCCAACCGCGCGAGGCCTCACACTC (5mC at 8 36) | 2320 a.u. |
| GAGGCCTGTTGCGGTTGGCCTCCTGGCCAACCGCAACAGGCCTCACACTC (5mC at 28) | 6760 a.u. |
| GAGGCCTGTTGTGGTGGGCCTCCTGGCCCACCACAACAGGCCTCACACTC (5mC at 29) | 2130 a.u. |
| GAGGCCCAACGGCAACAGCCTCCTGGCTGTTGCCGTTGGGCCTCACACTC (5mC at 10) | 1740 a.u. |
| GAGGCCTGTTGTCGTTGGCCTCCTGGCCAACGACAACAGGCCTCACACTC (5mC at 13 31) | 1770 a.u. |
| GAGGCCCGACCGCAACAGCCTCCTGGCTGTTGCGGTCGGGCCTCACACTC (5mC at 7) | 4970 a.u. |
| GAGGCCTGTTGCGCGTGGCCTCCTGGCCACGCGCAACAGGCCTCACACTC (5mC at 30) | 1730 a.u. |
| GAGGCCTCTTGCGGTTGGCCTCCTGGCCAACCGCAAGAGGCCTCACACTC (5mC at 8) | 5490 a.u. |
| GAGGCCTGTTGCGGCGGGCCTCCTGGCCCGCCGCAACAGGCCTCACACTC | 2250 a.u. |
